Measured values gathered from unrelated publications.
Every numbered part comes from another study and shows a few of its results, in no order. Positions count from the first letter of the parent shown.

Block 1
Target: Hepatocyte nuclear factor 3-alpha (Foxa1, Mus musculus, UniProt P35582, residues 1-468, full length assumed)
Chain of UniProt P35582 (whole entry, looked up): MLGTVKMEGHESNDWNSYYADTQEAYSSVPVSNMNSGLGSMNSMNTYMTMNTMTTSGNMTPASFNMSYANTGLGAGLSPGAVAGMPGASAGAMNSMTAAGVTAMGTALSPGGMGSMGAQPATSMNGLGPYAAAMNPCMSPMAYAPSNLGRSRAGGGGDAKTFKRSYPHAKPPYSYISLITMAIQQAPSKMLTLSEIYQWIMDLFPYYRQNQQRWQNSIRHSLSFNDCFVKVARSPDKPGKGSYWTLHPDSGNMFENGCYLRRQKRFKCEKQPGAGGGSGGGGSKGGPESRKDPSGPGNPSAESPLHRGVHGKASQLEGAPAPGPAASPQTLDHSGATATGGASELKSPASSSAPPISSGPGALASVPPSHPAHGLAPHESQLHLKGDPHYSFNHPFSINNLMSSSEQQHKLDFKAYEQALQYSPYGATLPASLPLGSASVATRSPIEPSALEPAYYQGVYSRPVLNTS
Method: EMSA with sequencing
Form: double-stranded DNA, one strand shown
Medium: in vitro
Concentration: 10 and 20 nM
Notes: whole designed probe, mean of two concentrations, ends assumed
Relative to: negative control set to 0
Direction: higher = stronger binding
Quantity: normalised bound fraction
Shared flanks, not repeated: GTGAGCGGTGCCCATTGATGGGGAAC … TTTCACTGGGATCGTGGGGAC
AGAATCGGACGGAACGTTTCCACCATCTGGAACCACAGCAGCCAGAAGCAGAAAGGAGAGGTAATTGTCACCAAAGCATCACAAACTCTCCATGTTTACTTACTCTGCTCACACTTCTGGAGACATCTTCTCTTCCTCCCATATGGGGGGACAGCAAGGGAAAAACTGAAGGTGCATGTGAGCGTGAGAGAGT: 0.305 ratio
ATGTGCTAAAAATACAAGACTTGCTTACGCAGAGAGCCGGGAGCTATGTTCCAGTGAGGGTGGAAACAAAAGCCTCAGTATAAGACTGTCAGGTGTTTACACAAGGGTGTGGTTTGCTCATGTGGCAACACGAGGTTGCTGGACTCCACATGCTGAGGCTCAAAGTAGAAATCACTGATCTTATGTCACATAT: 0.428 ratio
GACTCCTACAGTATGTAATTTACATCAATAAAGACGTAAAAATCCTTCCTTTTGTCTAACATCTGTAGGGCTATGACTTACTCTGATGTCCTTGTTTACTCTAGCGTGGAGTCAACGAGCTTATTATTTGATCTAGTCTCCATGATGGCTTGTTTGTTTACAGCTGAGCAAGTTTACATAGGGCAAAATTAAA: 0.478 ratio
GATTCCAGCCAGCAGAATAGGAATTTCAGAATACGATAAGGAGATGTTAAGGAAGGTCAGGCAGTAAAAAGAGGTTTGCTGACTCATGTGGTTAGATGACTTAGCAAGTCAGGGAGAAGTCAATAGATTGCTCTCCTGTTTTACAGTCTTTAGGTGTGGGCCAGCCCAGGGCCATTGATAGTCATTTTAGCCA: -0.0329 ratio
ATATTTTACATACGTGTATTAAATATATATATATATAAATGTCTCCTGTTCTTTTTCAGTAATCATAGTGTTTTTACAATTATCTGTTACTATGTAATCTTTTATTTCAAGGCATTGGTCACGTTACCTACCTACTCTTCCAGGGAATGGACATGCAGATTGCCTTCATACCCTCCCACCACAGGAAATGCTG: 0.0421 ratio
AACTAGTTTAACAACAAAAAAATTTTACATTTATTTCCATTTTTATGATTCAACTAGTTAATAGTTTTTCAAAAATATTACTATATCTTTCAAAGTAATCTTAAAAATAATGAAATTTATGTCTGAGATATAAAATCTCAATTGGCTTTATAATAAATATATGCTTATTAATACATGTGGTAGATGTATGCAT: 0.111 ratio
ATCTTCCCCCTCTTCCTTGCCCCACCAGCTCACCTACGGGGGTTATTTGCACAAAGGAAAATAAATAAAGCCGGCATTCGTTAACGCAGTTCACGCGCATACTGCTGTTTGCTCTGCATGAATCATGGTCCTTACGCGAGGCGTGGCTCCGGGAGAGCAAAGCACCGTGTCAGGCGCATGATCCGGGCTCGCC: 0.391 ratio
ATCTTCCCCCTCTTCCTTGCCCCACCAGCTCACCTACGGGGGTTATTTGCAGATAGGAAAATAAATAAAGCCGGCATTCGTTAACCCTCTTCTGGCGCAAACTGCTGTTTGCTCTGCATCTAACATGGTCCTTACGCGACGCCAGGCTCCGGGAGAGCAAAGCACCGTGTCAGGCGCATGATCCGGGGTGGCC: 0.355 ratio

Block 2
Target: RNA binding protein fox-1 homolog 2, RRM domain, GST-SBP tag (RBFOX2, Homo sapiens, UniProt O43251-10, residues 100-194)
Method: RNA Bind-n-Seq
Form: RNA
Medium: in vitro
Concentration: 365 nM
Notes: natural RNA segment, single round, ends assumed
Relative to: no-protein control
Direction: higher = stronger binding
Quantity: RBNS enrichment (R)
Shared flanks, not repeated: GGGAGUUCUACAGUCCGACGAUC … UGGAAUUCUCGGGUGCCAA
Target sequence (chain): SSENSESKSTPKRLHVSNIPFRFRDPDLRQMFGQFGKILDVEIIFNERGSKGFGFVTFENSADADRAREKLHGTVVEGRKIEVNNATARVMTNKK
UGAGCAUUAUUCAGCAUUAGGGAAACCACACACUGGUGAGAGGUCUUUCAGUGUACUAAAAGGCAGAAAGGUCAUCACAACUUUAGUGUCAGAAUCUAUAGUGGUGGCAA: 0.281
GUUCCUACUCCCACCCUCAGCGAACUGGGCAGCACGGGGAGGGUUUGGCUACCCCUGCCCAUCCCUGAGCCAGGUACCACCAUUGUAAGGAAACACUUUCAGAAAUUCAG: 0.425
GACCAGGCUCUAGCUCUGGGCCCUCCUUCAGCCCCCAUCAUGGGAAUAAAUUAAUUUUCUCAAUGUACAUAUUUGAGUUAUUAUAUGGAAAGAGUGCACGUUUGCAAGGA: 0.806
AGGAGGCUGCUACAUUCCUCUCGUUCUGUCUCACACACUCUUCCUCCGAGUUUGUGUGUCUAGAACUUGGAUGUUUCCAUAAGGAAAACAGAACUGUGGUAUUGUUUCGA: 0.396
ACACAUACACACACAGCCUUUCACUGGAAGCCAUGGGCUUCCAGGUUAAGUUCAGCCAAGGGACCCAAUGCAGACAUCCUUCGUGGACAGGGUUCAGCCUUGGGAGGCCA: 0.853
UUCAGGACGCCUCGUGUUUUUGUUUUCUGCUGGAUCUGUGUGGUGGUGUUAGCGUCGUUUGCCUAGCAUCUGAUUUUCUGAUGUAACCAGGGUUUCACGCUGUUCUUUUC: 0.576
CCCUAUUGGGAUGGACCGCUGGACAGCAAUGCUCGAGUUUGUGAAUUUGGAGAGAUACUCAAAAGAGCUAAAACUGCAGCAUUUUACCUUUAAAUGCAGUGCCUAGAGAG: 0.622
CACCGGCAACUAACCUAUGACCUUCUGACCUCUGAACUCUUCACCCAAUGAUGACCUGACCAUGCCUGCCUGCUGAUCAGUUAACUGGUAAUCGCCUUUGCUUGCCUGUC: 0.371
AUGUGAUGGGGCUUCAAGACGUGAACUGAGACAAUUCACUCUGGCUGUUUGAACAGCAGCGUUUCAUAGGAAGAGAAAAAGAUCAAUCUUGUAUUUUCUGACCACAUAAA: 0.289
CCAGGAGUGGGGCCCCAACUCUUCCAAGAUACCAGCAUUCCUCAAGUCCUCCCAAAACUUCCUACCCACACCCUCUUCCCAAGGCCCUCAGGGGCAGAAAACAUCUCCUU: 0.637
UGUGAUGAUGCUGUGACAAUAAGUUUGAACCUUUUUUUUUGAAACAGCAGUCCCAGUAUUCUCAGAGCAUGUGUCAGAGUGUUGUUCCGUUAACCUUUUUGUAAAUACUG: 9.77
UCUAGCAAGCCAUGGAGACAGGUAGCAUUUGUAAGAUGCUGCACAGGAGCAGCAUUAUCCCCAAAGAUAUUACAGGGUAGACACGUUUUAACUGAAAUCAAUCAAGAUAA: 0.668

Block 3
Target: CCNE1, cyclin fold, Cln2 fusion (human)
Method: yeast growth competition, sequencing
Medium: yeast
Notes: strong parent motif
Relative to: not given
Direction: higher = stronger binding
Quantity: normalised enrichment score
Starting sequence: SCAPER docking peptide (human); SNARRSLNFGGST
SNARRGLNFGGST [S6G]: 1.26
SNARRSLNFGGQT [S12Q]: 0.504
SMARRSLNFGGST [N2M]: 0.169
SNVRRSLNFGGST [A3V]: 0.459
SNARRSLNTGGST [F9T]: 0.0276
SNARRSYNFGGST [L7Y]: 0.387
SNARRSLNFGGSH [T13H]: 0.405
SNARRSLNFSGST [G10S]: 0.347
SNARRALNFGGST [S6A]: 2.76
SNSRRSLNFGGST [A3S]: -0.192
KNARRSLNFGGST [S1K]: 0.827
SNKRRSLNFGGST [A3K]: 0.106
SNARRSLNFGGDT [S12D]: 1.81
SNARRSLNFGGFT [S12F]: 1.24
SNARRSLNFGGKT [S12K]: 0.705
SNARRSLNFGGLT [S12L]: 1.62
YNARRSLNFGGST [S1Y]: 1.4
SNARRSLNFLGST [G10L]: 1.12

Block 4
Target: Ras GTPase-activating protein-binding protein 1, full length (G3BP1, Homo sapiens, UniProt Q13283)
Chain of UniProt Q13283 (whole entry, looked up): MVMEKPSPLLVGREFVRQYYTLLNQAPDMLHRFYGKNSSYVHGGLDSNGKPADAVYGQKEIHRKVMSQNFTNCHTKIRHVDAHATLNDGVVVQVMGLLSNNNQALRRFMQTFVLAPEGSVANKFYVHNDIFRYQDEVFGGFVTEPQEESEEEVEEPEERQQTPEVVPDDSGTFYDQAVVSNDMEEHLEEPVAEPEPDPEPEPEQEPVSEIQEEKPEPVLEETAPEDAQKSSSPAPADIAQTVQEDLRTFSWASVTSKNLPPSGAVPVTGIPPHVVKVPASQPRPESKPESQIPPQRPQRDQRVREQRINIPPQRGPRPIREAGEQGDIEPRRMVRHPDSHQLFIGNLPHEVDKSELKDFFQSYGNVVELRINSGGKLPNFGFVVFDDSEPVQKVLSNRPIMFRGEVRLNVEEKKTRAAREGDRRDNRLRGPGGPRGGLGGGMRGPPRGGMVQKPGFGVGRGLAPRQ
Method: RNA Bind-n-Seq
Form: RNA
Medium: in vitro
Concentration: 200 nM
Notes: whole 134-nt RNA, ends assumed
With: 150 mM LiCl
Relative to: input library
Direction: higher = stronger binding
Quantity: log2 enrichment
Each molecule: 7-deaza-guanosine replaces G
Shared flanks, not repeated: GGGAGUUCUACAGUCCGACGAUC … UGGAAUUCUCGGGUGUCAAGG
UUUCUGUGUGCUUAGGUGCCCGAGCUACUGAGGGUCUAAGUCCGGGCAGCCGAAGAGUGUGGUAGGUAACGGUCCUCAGCGCAAGGGUCA: 0.938
ACCAUGCAGGUGGGCAUCUUUGGAAAGUGGGGCAAGGGGGGGAUAGGGAGGGGGGUAACACUUUGGGAACAGGUGGUCCCAGGUCGUUUC: 0.294
UCCUGUGCUACACAUCGUAUGUACCGAAUCGGGUUUUUUGGUUUUUUGGGUUUUUUGGGAAAGUAUUAUGUUACGCCGUUCGGAUCUGCA: -0.138
CUGUGCUACACAUCGUAUGUACCGAAUCGGGGAAAAAAGGGAAAAAAGGGGAAAAAAGGGGAAAGUAUUAUGUUACGCCGUUCGGAUCUG: 0.354
CACAGACAACACGCACCCACACAGACACAGAGGGAAGGGGUUGGGAUGGGGACAGGGUGCACAGCAGGGCGGGGUAGGAGCCCAGCCCCU: 0.566
UGGCCCUGGUGGCAUGCGGGGAGGAAGAGGUGGCCACAUGGAUCGUGGUGGUCCCGGUGGAAUGUUCAGAGGUGGCCGUGGUGGAGACAG: 0.508
CAAGUCCUGUGCUACACAUCGUAUGUACCGAAUCGGCCCGGGCCCGGGGCCCGGGAAAGUAUUAUGUUACGCCGUUCGGAUCUGCACUUC: -0.758
GCAGGAAGUAAAAACAAAUGGAAAUGCUUCGGAUAGUGGCAGGGGUGGGGCUUGCUAAGGAAAGGGUGGGAUGGGAGUGGGUAAAGAGUU: -0.267
GCAGGAAGUAAAAACAAAUGGAAAUGCUUCGGAUAGUGGCAGGGGUGGGGGUUGCUAAGGAAAGGGUGGGAUGGGAGUGGGUAAAGGGUU: 0.00543
UGGCCCGCCGUCCUGAGGAAGCUGAGGUUCACUGCGGUGCCCAAGAACCACCAGGCGGUCCGGAACCCGUGAGCGGCUGCCAGGGGCUCU: -0.00575
UAACUUUAGAGGAGGAUCUGAUGGAUAUGGCAGUGGACGUGGAUUUGGGGAUGGCUACAAUGGGUAUGGAGGAGGACCUGGAGGUGGCAA: -0.158

Some of these lines once more (block 4):
GCAGGAAGUAAAAACAAAUGGAAAUGCUUCGGAUAGUGGCAGGGGUGGGGGUUGCUAAGGAAAGGGUGGGAUGGGAGUGGGUAAAGGGUU: 0.00543
UGGCCCUGGUGGCAUGCGGGGAGGAAGAGGUGGCCACAUGGAUCGUGGUGGUCCCGGUGGAAUGUUCAGAGGUGGCCGUGGUGGAGACAG: 0.508
CACAGACAACACGCACCCACACAGACACAGAGGGAAGGGGUUGGGAUGGGGACAGGGUGCACAGCAGGGCGGGGUAGGAGCCCAGCCCCU: 0.566
UAACUUUAGAGGAGGAUCUGAUGGAUAUGGCAGUGGACGUGGAUUUGGGGAUGGCUACAAUGGGUAUGGAGGAGGACCUGGAGGUGGCAA: -0.158
UGGCCCGCCGUCCUGAGGAAGCUGAGGUUCACUGCGGUGCCCAAGAACCACCAGGCGGUCCGGAACCCGUGAGCGGCUGCCAGGGGCUCU: -0.00575
UUUCUGUGUGCUUAGGUGCCCGAGCUACUGAGGGUCUAAGUCCGGGCAGCCGAAGAGUGUGGUAGGUAACGGUCCUCAGCGCAAGGGUCA: 0.938
